Measurements pooled from the literature.
Compare with care: the assays were run in different laboratories. Numbers after ± are the reported error. ≈ marks a conversion by molar mass, not a printed value.
CXCR4: C-X-C chemokine receptor type 4 (CXCR4, Homo sapiens, UniProt P61073)
UniProt P20815, sequence (whole entry, looked up): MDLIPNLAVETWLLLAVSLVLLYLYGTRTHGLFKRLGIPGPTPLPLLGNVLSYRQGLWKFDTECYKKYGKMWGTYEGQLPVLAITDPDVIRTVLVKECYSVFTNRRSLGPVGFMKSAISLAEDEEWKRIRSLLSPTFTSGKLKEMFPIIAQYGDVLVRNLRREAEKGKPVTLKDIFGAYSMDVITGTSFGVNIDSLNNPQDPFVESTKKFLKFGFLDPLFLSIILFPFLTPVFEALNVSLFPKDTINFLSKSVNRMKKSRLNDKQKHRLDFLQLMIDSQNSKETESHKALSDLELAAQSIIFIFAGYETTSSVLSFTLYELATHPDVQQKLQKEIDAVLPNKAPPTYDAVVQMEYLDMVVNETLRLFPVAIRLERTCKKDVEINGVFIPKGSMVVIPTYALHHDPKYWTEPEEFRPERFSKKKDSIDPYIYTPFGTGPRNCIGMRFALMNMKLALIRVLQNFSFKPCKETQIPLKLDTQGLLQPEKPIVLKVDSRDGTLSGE

SMILES	tested on	test	system	setting	quantity	value
COc1ccc(-c2coc3c(CC=C(C)C)c(O)c(CC=C(C)C)c(O)c3c2=O)cc1O	K562	cell growth or viability, MTT	–	25 µg/mL	viability	19.3%
COc1ccc(NC(=O)N2CCCCN3[C@H](CN(C)C)[C@H](c4ccc(C#Cc5ccccc5)cc4)[C@@H]3C2)cc1	Toxoplasma gondii	parasite growth, luciferase	HFF, RH type I luciferase	–	EC90	0.0987 µg/mL (≈ 0.189 µM)
COc1cc2c(cc1O)[C@]1(O)C(=O)c3c(O)cc4c(c3O[C@@H]1CO2)C=CC(C)(C)O4	K562	cell growth or viability, MTT	–	100 µg/mL	viability	7.09%
O=C([O-])CN1CCN(CC(=O)[O-])CCN(CC(=O)NCCc2ccc3c(c2)C2C=CCC2C(c2cc4c(cc2Br)OCO4)N3)CCN(CC(=O)[O-])CC1.[111In+3] (centres unmarked)	Hec50 tumour model	–	host not given, bone	4 h, tumour-bearing	tracer uptake	0.12 %ID/g
[64Cu+2].c1ccc(CNCc2ccc(CN3CCCN4CCNCCCN(CC4)CC3)cc2)nc1	CXCR4	–	NOD/SCID mice, U87 xenografts, U87-stb-CXCR4 tumour	480 min post-injection	tissue uptake	14.1 ± 7.98 %ID/g
COc1ccc2c(c1)c(CC(=O)[O-])c(C)n2C(=O)c1ccc(Cl)cc1.COc1ccc2c(c1)c(CC(=O)[O-])c(C)n2C(=O)c1ccc(Cl)cc1.[Co+2].c1c[nH]cn1.c1c[nH]cn1	calf thymus DNA	cyclic voltammetry	DMSO/buffer	Co(II)/Co(I) couple, with DNA	cathodic peak potential	-707 mV
CS[Se][C@@H]1O[C@H](COC(C)=O)[C@@H](OC(C)=O)[C@H](OC(C)=O)[C@H]1OC(C)=O	Trypanosoma brucei brucei	bioluminescence	bloodstream form	5 µM, 24 h, 1% DMSO	viability	82.8 ± 12.1%
[2H]c1c(NS(C)(=O)=O)c([2H])c2c(C(=O)c3ccc(OCCCN(CCCC)CCCC)cc3)c(CCCC)oc2c1[2H]	Cytochrome P450 3A5 (CYP3A5, Homo sapiens, UniProt P20815)	metabolic stability	recombinant enzyme	1 µM, enzyme 10 pmol/mL	half-life	17.8 min
N#C[C@@H]1CCCN1C(=O)CNC(=O)c1ccnc2ccc(OCCCN3CCN(C(=O)CCc4ccc(O)c(CN5CCN6CC(=O)[O][Al-]([18F])([O]C(=O)C5)[O]c5ccc(CCC(=O)N7CCN(CCCOc8ccc9nccc(C(=O)NCC(=O)N%10CCC[C@H]%10C#N)c9c8)CC7)cc5C6)c4)CC3)cc12 (some centres unmarked)	U-87 MG tumour model	–	host not given, tumour	1 h, tumour-bearing	tracer uptake	41.2 %ID/g
N=C(N)NCCC[C@@H]1NC(=O)[C@H](CCCCNC(=O)CNC(=O)CNC(=O)CNC(=O)CC[C@H](NC(=O)CNC(=O)CNC(=O)CNC(=O)CN2CCN(CC(=O)O)CCN(CC(=O)O)CCN(CC(=O)O)CC2)C(=O)NCC(=O)NCC(=O)NCC(=O)NCCCC[C@@H]2NC(=O)[C@@H](Cc3ccccc3)NC(=O)[C@H](CC(=O)O)NC(=O)CNC(=O)[C@H](CCCNC(=N)N)NC2=O)NC(=O)[C@@H](Cc2ccccc2)NC(=O)[C@H](CC(=O)O)NC(=O)CNC1=O [indium-111 labelled]	–	–	female athymic nu/nu mice, kidney	intravenous, 72 h	tissue uptake	1.48 ± 0.14 %ID/g
CC(=O)N[C@H](C(=O)N[C@H](C(=O)N[C@@H](CCCNC(=N)N)C(=O)N1Cc2ccccc2C[C@H]1C(=O)N[C@@H](Cc1ccccc1)C(N)=O)C1CCCCC1)C(C)C	human PBMC	Bio-Plex multiplex, measured: IL-13	–	500 µg/mL, 24 h	cytokine level	< 0.3 pg/mL
CC(C)=CCc1cc(-c2coc3cc(O)c(CC=C(C)C)c(O)c3c2=O)ccc1O	K562	cell growth or viability, MTT	–	12.5 µg/mL	viability	95.8%
Cc1cc(-c2ccc(NC(=O)[C@H](CCCCNC(=O)CCOCCOCCC(=O)N[C@H](Cc3ccccc3)C(=O)N[C@H]3CSSC[C@@H](C(=O)N[C@H](C(=O)O)[C@@H](C)O)NC(=O)[C@H]([C@@H](C)O)NC(=O)[C@H](CCCCN)NC(=O)[C@@H](Cc4c[nH]c5ccccc45)NC(=O)[C@H](Cc4ccc(O)cc4)NC3=O)NC(=O)CN3CCN(CC(=O)O)CCN(CC(=O)O)CCN(CC(=O)O)CC3)c(C)c2)ccc1N=Nc1ccc2c(S(=O)(=O)O)cc(S(=O)(=O)O)c(N)c2c1O [lutetium-177 labelled]	–	–	human metastatic neuroendocrine tumour	dose not given	grade 1 vomiting incidence	8%
NCC(=O)N1CCC[C@H]1C(=O)N1C[C@H](O)C[C@H]1C(=O)O	iron(III) ion	complex formation, from log β	aqueous 0.15 M NaCl	25 °C, MAH−3 complex species	−ΔG	-3.04 kcal/mol
C=CC(=O)Nc1cc(Nc2nccc(-c3cn(C)c4ccccc34)n2)c(OCC(F)(F)F)nc1N(C)CCN(C)C	Cytochrome P450 2C19 (CYP2C19, Homo sapiens, UniProt P33261)	enzyme activity, inhibitor	human, liver microsomes	0.33 µM	activity vs control	108%
N=C(N)NCCC[C@@H]1NC(=O)[C@H](CCCCNC(=O)CNC(=O)CNC(=O)CNC(=O)CC[C@H](NC(=O)CNC(=O)CNC(=O)CNC(=O)CC[C@H](NC(=O)CN2CCN(CC(=O)O)CCN(CC(=O)O)CCN(CC(=O)O)CC2)C(=O)NCC(=O)NCC(=O)NCC(=O)N[C@@H](CCC(=O)NCC(=O)NCC(=O)NCC(=O)NCCCC[C@@H]2NC(=O)[C@@H](Cc3ccccc3)NC(=O)[C@H](CC(=O)O)NC(=O)CNC(=O)[C@H](CCCNC(=N)N)NC2=O)C(=O)NCC(=O)NCC(=O)NCC(=O)NCCCC[C@@H]2NC(=O)[C@@H](Cc3ccccc3)NC(=O)[C@H](CC(=O)O)NC(=O)CNC(=O)[C@H](CCCNC(=N)N)NC2=O)C(=O)NCC(=O)NCC(=O)NCC(=O)NCCCC[C@@H]2NC(=O)[C@@H](Cc3ccccc3)NC(=O)[C@H](CC(=O)O)NC(=O)CNC(=O)[C@H](CCCNC(=N)N)NC2=O)NC(=O)[C@@H](Cc2ccccc2)NC(=O)[C@H](CC(=O)O)NC(=O)CNC1=O [indium-111 labelled]	–	–	female athymic nu/nu mice, kidney	intravenous, 24 h	tissue uptake	4.44 ± 0.45 %ID/g
CCCC[C@H](NC(=O)CCCCCCCNC(=O)CN1CCN(CC(=O)O)CCN(CC(=O)O)CC1)C(=O)N[C@H]1CC(=O)NCCCC[C@@H](C(N)=O)NC(=O)[C@H](Cc2c[nH]c3ccccc23)NC(=O)[C@H](CCCNC(=N)N)NC(=O)[C@@H](Cc2ccccc2)NC(=O)[C@H](Cc2c[nH]cn2)NC1=O [copper-64 labelled]	–	–	C57 mice, intestine	intravenous, 0.37 MBq, 0.5 h	tissue uptake	2.12 ± 0.45 %ID
COC(=O)c1cnc(-c2cnccn2)cc1C(=O)OC.COC(=O)c1cnc(-c2cnccn2)cc1C(=O)OC.[Cl-].[Cl-].[Cl-].[Cl-].[Cu+2].[Cu+2]	calf thymus DNA	ethidium bromide displacement	–	–	binding constant	367 M⁻¹
[64Cu+2].c1cnc(CNCc2ccc(CN3CCCN4CCNCCCN(CC4)CC3)cc2)nc1	CXCR4	–	NOD/SCID mice, U87 xenografts, U87-stb-CXCR4 tumour	450 min post-injection	tissue uptake	22.5 ± 4.09 %ID/g
O=C(O)CCC(NP(=O)(O)OCCC[C@@H](NC(=O)CC[C@H](NC(=O)CCCCCNC(=O)c1ccc([18F])cc1)C(=O)O)C(=O)O)C(=O)O (some centres unmarked)	CWR22Rv1 tumour model	–	host not given, muscle	1 h, tumour-bearing	tracer uptake	0.112 %ID/g

For quick reference, copied from above:
SMILES	tested on	test	system	setting	quantity	value
COc1ccc(NC(=O)N2CCCCN3[C@H](CN(C)C)[C@H](c4ccc(C#Cc5ccccc5)cc4)[C@@H]3C2)cc1	Toxoplasma gondii	parasite growth, luciferase	HFF, RH type I luciferase	–	EC90	0.0987 µg/mL (≈ 0.189 µM)
